Measured values of several laboratories.
Values joined by “and” are separate records of one study, mostly repeats; a detail may differ. ± gives the spread as reported.
Gria1/Gria2: Glutamate receptor AMPA 1/2 (Gria1/Gria2, Rattus norvegicus, UniProt P19490+P19491)
Sequence of UniProt P19491 (whole entry, looked up): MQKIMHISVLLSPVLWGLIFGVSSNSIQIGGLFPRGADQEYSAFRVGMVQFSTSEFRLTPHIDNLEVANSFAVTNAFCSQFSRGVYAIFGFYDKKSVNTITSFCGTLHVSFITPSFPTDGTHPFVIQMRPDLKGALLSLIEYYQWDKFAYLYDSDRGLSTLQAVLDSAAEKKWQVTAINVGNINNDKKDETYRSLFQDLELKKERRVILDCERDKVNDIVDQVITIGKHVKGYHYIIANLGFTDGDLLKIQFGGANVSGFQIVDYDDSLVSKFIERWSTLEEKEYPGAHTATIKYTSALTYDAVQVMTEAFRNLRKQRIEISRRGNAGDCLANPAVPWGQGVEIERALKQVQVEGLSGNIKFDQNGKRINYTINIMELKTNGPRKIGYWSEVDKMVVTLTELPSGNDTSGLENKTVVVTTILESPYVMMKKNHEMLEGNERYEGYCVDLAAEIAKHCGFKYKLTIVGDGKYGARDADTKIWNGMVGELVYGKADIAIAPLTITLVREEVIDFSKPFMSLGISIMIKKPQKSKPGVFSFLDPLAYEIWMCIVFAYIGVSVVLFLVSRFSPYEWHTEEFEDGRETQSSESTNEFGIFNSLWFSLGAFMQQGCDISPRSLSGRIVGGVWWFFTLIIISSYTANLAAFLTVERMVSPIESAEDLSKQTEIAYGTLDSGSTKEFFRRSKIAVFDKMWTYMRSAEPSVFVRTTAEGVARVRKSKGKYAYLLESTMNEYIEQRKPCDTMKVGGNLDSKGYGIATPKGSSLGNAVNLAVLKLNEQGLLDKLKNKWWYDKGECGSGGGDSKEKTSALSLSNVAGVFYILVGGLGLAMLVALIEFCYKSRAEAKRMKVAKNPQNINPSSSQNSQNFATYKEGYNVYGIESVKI
Sequence of UniProt P19490 (whole entry, looked up): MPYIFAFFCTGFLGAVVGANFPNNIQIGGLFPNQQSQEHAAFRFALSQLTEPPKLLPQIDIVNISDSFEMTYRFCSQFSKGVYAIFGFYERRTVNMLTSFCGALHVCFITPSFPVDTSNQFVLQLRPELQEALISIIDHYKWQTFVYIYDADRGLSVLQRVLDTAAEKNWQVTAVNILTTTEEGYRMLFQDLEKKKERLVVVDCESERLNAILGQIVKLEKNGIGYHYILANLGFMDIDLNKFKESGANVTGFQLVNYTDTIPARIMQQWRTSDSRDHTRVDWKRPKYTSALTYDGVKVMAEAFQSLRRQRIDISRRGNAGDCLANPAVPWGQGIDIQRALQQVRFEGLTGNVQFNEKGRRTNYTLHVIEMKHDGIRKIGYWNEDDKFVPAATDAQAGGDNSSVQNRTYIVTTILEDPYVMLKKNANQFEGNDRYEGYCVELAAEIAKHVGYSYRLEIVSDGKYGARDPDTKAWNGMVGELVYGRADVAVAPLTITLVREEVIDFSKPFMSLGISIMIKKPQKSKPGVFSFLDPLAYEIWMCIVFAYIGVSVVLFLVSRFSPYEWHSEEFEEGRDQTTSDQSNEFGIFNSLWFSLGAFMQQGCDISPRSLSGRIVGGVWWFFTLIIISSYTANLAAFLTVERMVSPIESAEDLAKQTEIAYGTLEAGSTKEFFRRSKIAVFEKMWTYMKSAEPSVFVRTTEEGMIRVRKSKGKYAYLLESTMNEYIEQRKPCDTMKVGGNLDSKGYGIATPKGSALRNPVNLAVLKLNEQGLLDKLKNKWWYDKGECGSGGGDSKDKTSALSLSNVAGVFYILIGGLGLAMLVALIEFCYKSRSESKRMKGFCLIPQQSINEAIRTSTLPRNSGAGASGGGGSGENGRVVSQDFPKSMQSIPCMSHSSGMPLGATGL
Sodium- and chloride-dependent glycine transporter 2: Sodium- and chloride-dependent glycine transporter 2 (Homo sapiens, UniProt Q9Y345)
Sequence of UniProt Q9UGJ0 (whole entry, looked up): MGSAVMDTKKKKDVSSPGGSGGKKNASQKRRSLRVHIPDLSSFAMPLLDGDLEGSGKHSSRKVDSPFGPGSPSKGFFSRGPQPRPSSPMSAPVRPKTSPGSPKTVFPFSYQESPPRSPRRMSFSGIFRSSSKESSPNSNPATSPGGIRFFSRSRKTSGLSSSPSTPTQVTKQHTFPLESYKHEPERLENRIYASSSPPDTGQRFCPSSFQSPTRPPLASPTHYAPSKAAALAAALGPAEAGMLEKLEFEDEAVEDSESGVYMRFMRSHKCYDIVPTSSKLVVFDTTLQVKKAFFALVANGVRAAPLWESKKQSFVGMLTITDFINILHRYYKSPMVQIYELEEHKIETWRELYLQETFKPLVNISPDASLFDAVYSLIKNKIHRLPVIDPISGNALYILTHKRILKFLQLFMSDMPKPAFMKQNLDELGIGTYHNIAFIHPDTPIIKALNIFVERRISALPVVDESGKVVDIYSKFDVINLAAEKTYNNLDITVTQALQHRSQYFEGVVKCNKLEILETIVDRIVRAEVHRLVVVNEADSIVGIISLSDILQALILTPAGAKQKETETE
Sequence of UniProt Q7Z5P4 (whole entry, looked up): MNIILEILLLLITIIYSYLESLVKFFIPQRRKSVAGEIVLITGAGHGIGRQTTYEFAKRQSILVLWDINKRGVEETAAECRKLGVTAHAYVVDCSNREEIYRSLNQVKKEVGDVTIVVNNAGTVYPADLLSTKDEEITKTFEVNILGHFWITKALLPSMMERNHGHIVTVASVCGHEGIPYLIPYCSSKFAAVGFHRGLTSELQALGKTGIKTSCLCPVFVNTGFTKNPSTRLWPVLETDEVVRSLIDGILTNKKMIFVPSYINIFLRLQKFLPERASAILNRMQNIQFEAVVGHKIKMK
Sequence of UniProt Q8WYJ6 (whole entry, looked up): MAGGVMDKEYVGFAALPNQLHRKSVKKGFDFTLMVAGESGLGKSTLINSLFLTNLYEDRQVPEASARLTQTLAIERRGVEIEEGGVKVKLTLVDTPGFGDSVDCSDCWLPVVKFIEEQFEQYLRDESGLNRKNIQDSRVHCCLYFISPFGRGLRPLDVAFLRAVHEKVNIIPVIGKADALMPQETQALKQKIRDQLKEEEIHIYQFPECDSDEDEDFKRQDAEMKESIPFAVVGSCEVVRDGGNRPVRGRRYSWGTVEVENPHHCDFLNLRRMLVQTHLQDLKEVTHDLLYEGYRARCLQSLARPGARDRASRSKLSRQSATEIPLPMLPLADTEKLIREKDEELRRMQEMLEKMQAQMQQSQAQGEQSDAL
Sequence of UniProt Q53HV7 (whole entry, looked up): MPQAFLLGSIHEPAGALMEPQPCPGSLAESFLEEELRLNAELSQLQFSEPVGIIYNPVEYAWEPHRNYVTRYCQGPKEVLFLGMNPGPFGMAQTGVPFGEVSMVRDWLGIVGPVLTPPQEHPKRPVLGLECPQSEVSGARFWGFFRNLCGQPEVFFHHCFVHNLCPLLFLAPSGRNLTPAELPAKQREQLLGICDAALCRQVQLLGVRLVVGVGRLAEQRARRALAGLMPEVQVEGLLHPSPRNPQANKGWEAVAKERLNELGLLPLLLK
Sequence of UniProt Q9Y345 (whole entry, looked up): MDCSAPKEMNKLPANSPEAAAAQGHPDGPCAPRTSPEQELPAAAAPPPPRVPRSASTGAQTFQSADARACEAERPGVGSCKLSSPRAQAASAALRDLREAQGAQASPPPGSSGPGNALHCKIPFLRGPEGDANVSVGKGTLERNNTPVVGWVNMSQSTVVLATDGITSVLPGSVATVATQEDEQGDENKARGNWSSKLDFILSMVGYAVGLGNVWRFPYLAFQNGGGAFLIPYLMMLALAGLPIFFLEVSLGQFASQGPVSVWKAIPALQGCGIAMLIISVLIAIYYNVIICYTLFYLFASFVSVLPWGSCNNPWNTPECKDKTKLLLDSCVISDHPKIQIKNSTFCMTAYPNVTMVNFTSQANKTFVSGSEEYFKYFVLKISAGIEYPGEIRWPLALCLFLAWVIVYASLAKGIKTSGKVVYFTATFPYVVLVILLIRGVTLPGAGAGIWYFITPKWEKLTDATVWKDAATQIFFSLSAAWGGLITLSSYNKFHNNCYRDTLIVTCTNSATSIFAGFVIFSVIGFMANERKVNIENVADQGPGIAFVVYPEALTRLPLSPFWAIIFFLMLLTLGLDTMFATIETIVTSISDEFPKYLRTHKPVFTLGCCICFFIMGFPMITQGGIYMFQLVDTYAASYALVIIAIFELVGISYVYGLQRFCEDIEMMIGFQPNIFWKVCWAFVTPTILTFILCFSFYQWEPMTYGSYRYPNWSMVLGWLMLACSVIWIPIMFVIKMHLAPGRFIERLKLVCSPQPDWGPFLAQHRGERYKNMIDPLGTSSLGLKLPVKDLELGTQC
Sequence of UniProt Q13148 (whole entry, looked up): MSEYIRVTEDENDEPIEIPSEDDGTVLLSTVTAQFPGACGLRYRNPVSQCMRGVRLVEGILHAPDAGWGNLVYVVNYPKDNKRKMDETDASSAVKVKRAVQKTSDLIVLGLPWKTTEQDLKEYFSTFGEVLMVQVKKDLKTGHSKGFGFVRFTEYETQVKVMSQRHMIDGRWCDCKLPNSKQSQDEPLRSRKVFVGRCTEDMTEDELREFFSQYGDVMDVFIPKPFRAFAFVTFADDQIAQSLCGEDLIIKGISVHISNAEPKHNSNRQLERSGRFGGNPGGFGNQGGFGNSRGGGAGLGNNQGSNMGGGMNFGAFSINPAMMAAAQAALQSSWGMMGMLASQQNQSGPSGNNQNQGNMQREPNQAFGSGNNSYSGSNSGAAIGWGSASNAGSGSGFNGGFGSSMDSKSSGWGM
Sequence of UniProt Q9BRQ8 (whole entry, unmodified, looked up): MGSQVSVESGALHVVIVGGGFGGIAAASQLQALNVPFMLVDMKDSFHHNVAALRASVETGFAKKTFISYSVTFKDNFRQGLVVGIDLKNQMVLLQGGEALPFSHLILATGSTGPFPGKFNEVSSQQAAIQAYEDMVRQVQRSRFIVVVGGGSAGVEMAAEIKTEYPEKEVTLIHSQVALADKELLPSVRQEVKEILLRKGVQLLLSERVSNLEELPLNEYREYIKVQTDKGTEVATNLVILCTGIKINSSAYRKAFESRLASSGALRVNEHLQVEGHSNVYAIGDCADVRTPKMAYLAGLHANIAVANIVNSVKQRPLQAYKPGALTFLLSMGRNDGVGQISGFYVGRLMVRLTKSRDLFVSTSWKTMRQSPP

Cn1c(=O)n(C2CCC(=O)NC2=O)c2ccc(C3CCN(CC(=O)Nc4cccc(CS(=O)(=O)N5CC[C@H](Nc6cccc(-c7sc(C(=O)O)c(OCC(=O)O)c7Cl)c6)CC5(C)C)c4)CC3)cc21 (stereo partly shown)
Emax (Tyrosine-protein phosphatase non-receptor type 2 (PTPN2, Homo sapiens, UniProt P17706); protein degradation, degrader, HiBiT; B16-F10 cells; 24 h): 3.45%

COC(=O)Cc1cc2c(cc1C(=O)c1ccccc1Br)OCO2
current amplitude (Gria1/Gria2; glutamate-evoked current, whole-cell patch clamp; HEK-293T; concentration not given, pH 7.4, holding potential -60 mV, together with: 10 mM glutamate): 235 ± 16 pA

CCCCCCCCCCCCC/C=C/C=O
isoTOP-ABPP competition ratio (Cytidine deaminase (CDA, Homo sapiens, UniProt P32320); competitive isoTOP-ABPP; proteome, soluble, MDA-MB-231; 100 µM, together with: iodoacetamide probe; relative to: DMSO over compound-treated, higher = stronger cysteine blockade): 1.4

O=C(Nc1cccc(C(=O)N2CCC(c3nc(-c4ccccc4)n[nH]3)CC2)c1)c1ccccc1
ΔTm (Ferroptosis suppressor protein 1 (AIFM2, Homo sapiens, UniProt Q9BRQ8); target engagement in cells; HEK293; 10 µM): 3.2 °C

O=C=[N][Ru-4]123([n]4c5ccc(O)cc5c5c6c(c7cc(F)c[n+]1c7c54)C(=O)NC6=O)[S+]1CC[S+]2CC[S+]3CC1 (stereo not shown)
remaining activity (Dual specificity mitogen-activated protein kinase kinase 4 (Map2k4, Mus musculus, UniProt P47809); enzyme activity; 100 nM, mouse enzyme, together with: 10 µM ATP; relative to: untreated): 103%

Cc1cc(=O)oc2cc(OCCCCCCSC#N)ccc12
selectivity ratio (Carbonic anhydrase 12 (CA12, Homo sapiens, UniProt O43570); stopped-flow CO2 hydration; relative to: Ki CA I over Ki CA XII): > 1580

CCCCCc1ccc(Cc2cc(/C=C/C(=O)OC)cc3cccnc23)cc1
koff (Glideosome-associated protein 50 (GAP50, Plasmodium falciparum, UniProt Q8I2X3); binding, surface plasmon resonance; 1:1 binding model): 0.0437 s⁻¹

COc1ccccc1C1(O)CCN(CCCCC2=C3C(C)=CC(C)=[N+]3[B-](F)(F)n3c(C)cc(C)c32)CC1
remaining specific binding (Sodium- and chloride-dependent glycine transporter 2; MS binding competition; 10 µM): 69.6 ± 6.1%

CC(=O)NCCCC[C@H](NC(=O)[C@H](CO)NC(=O)CNC(=O)[C@H](CCCCN)NC(=O)[C@H](CCCCN)NC(=O)[C@@H]1CCCN1C(=O)[C@H](C)NC(=O)[C@@H]1CCCN1C(=O)[C@H](C)NC(=O)[C@H](CO)NC(=O)[C@H](CCCCN)NC(=O)[C@H](C)NC(=O)[C@@H]1CCCN1C(=O)[C@H](CC(=O)O)NC(=O)[C@@H]1CCCN1)C(=O)N[C@@H](CCCCN)C(=O)N[C@@H](C)C(=O)N[C@H](C(=O)N[C@H](C(=O)O)[C@@H](C)O)C(C)C
binding stoichiometry (YEATS domain-containing protein 4, YEATS domain (Homo sapiens, UniProt O95619); isothermal titration calorimetry; concentration not given, pH 7.6, 25 °C, together with: histone peptide): 1

O=C1c2sc(-c3ccc(N4CCC(F)C4)nc3F)nc2CCN1c1cccnc1 (stereo not shown)
specific binding (TAR DNA-binding protein 43, aggregated (TARDBP, Homo sapiens, UniProt Q13148); radioligand binding; human, FTLD-TDP type B sarkosyl-insoluble extract; 26.56 nM): 1.37 nM and 1.68 nM

CCCCCCCCCCCCCCCc1cccc(OCC)c1C(=O)Nc1ccc(Cl)c(C(F)(F)F)c1
SPR binding response (Histone acetyltransferase KAT5 (KAT5, Homo sapiens, UniProt Q92993); SPR; 0.0078 µM; higher = more binding): 0.138 RU

C=CC(=O)N1CCCC(n2c(=O)c3ncccc3n(Cc3ccc(Oc4ccccc4)cc3)c2=O)C1 (stereo not shown)
melting temperature (Septin-1 (SEPTIN1, Homo sapiens, UniProt Q8WYJ6); thermal proteome profiling, item: SEPTIN1; treated): 46.8 °C and 41.2 °C

CCCCCC(O)/C=C/C=O (stereo not shown)
isoTOP-ABPP competition ratio (Proteasome subunit beta type-8 (PSMB8, Homo sapiens, UniProt P28062); competitive isoTOP-ABPP; Ramos soluble proteome; 100 µM, 60 min, together with: iodoacetamide probe; relative to: DMSO over compound-treated, higher = stronger cysteine blockade): 1.1

CCCCCCCCCCCCCCCC(=O)NCCCC[C@H](NC(=O)[C@H](CCC(=O)O)NC(=O)[C@H](Cc1ccc(O)cc1)NC(=O)[C@H](CCC(=O)O)NC(=O)COCC(=O)NCCCOCCOCCOCCCNC(=O)[C@H](Cc1c[nH]c2ccccc12)NC(=O)[C@H](CCCCN)NC(=O)[C@H](C)NC(=O)[C@H](CCCCNC(=N)N)NC(=O)[C@H](CCC(N)=O)NC(=O)[C@H](Cc1c[nH]cn1)NC(=O)[C@H](CCSC)NC(=O)[C@H](CC(C)C)NC(=O)[C@H](CCC(N)=O)NC(=O)[C@@H](NC(=O)[C@H](CCC(=O)O)NC(=O)C(C)(C)NC(=O)[C@@H](NC(=O)C(C)(C)N)C(C)C)[C@@H](C)CC)C(=O)N[C@@H](CCC(=O)O)C(=O)N[C@@H](Cc1ccc(O)cc1)C(=O)N[C@@H](CCC(=O)O)C(N)=O
cAMP luminescence AUC (Parathyroid hormone/parathyroid hormone-related peptide receptor (PTH1R, Homo sapiens, UniProt Q03431); agonist; Saos-2 with cAMP reporter; 31.6 pM, 90 min, washout after 30 min ligand; higher = more cAMP): 108 a.u.

O=C1C[C@H](c2nc(-c3ccc(F)c4cn[nH]c34)no2)CCCN1c1ccc(F)cc1 (racemic)
Emax (Cannabinoid receptor 2 (CNR2, Homo sapiens, UniProt P34972, F87A); cAMP, agonist, luciferase): 92.4%

O=C(N1CCCC1)n1cc(-c2ccc(-c3ccccc3)cc2)nn1
SILAC activity ratio (Protein phosphatase methylesterase 1 (Mus musculus, UniProt Q8BVQ5); probe labelling, inhibitor, competitive ABPP-SILAC, item: Ppme1; mouse T cells; concentration not given, 4 h, protein level; relative to: treated over DMSO cells, lower = stronger inhibition): 1.15

O[C@@H]1[C@@H](O)[C@H](Cl)C=C[C@H]1O
kinact/Ki ratio (Lysosomal acid glucosylceramidase (GBA1, Homo sapiens, UniProt P04062); covalent inhibitor; relative to: fluoride over chloride): ~10 fold

O=C(O)Cc1cc2c(cc1C(=O)c1ccccc1Br)OCO2
desensitization time constant (Gria1/Gria2; whole-cell patch clamp; HEK-293T; concentration not given, together with: glutamate): 3.8 ± 0.3 ms

COc1cc2nc(-c3ccccc3)nc(Nc3ccc(Oc4ccccc4)cc3)c2cc1OC
activity (SMUG1 (Homo sapiens, UniProt Q53HV7); enzyme activity, activator, fluorescence; 2 µM; relative to: control): 1300%

CC(=O)c1cnc(NS(=O)(=O)c2ccc(Cl)c(Cl)c2)nc1
oxidized product ratio (17-beta-hydroxysteroid dehydrogenase 13 (Homo sapiens, UniProt Q7Z5P4); enzyme activity; human hepatocytes, HSD17B13 siRNA, culture medium; 96 h; relative to: scramble siRNA control): 0.0558 and 0.047 and 0.048 and 0.0561

CC1=CC(C)=[N+]2C1=C(CCCCCN1CCCC(O)C1)c1c(C)cc(C)n1[B-]2(F)F (stereo not shown)
remaining specific binding (Sodium- and chloride-dependent glycine transporter 2; MS binding competition; 10 µM): 87.3 ± 4.6%

COC(=O)[C@@]1(C(C)C)C=C(C(=O)Nc2cccc(C(=O)Nc3ccc(Nc4nccc(-c5cccnc5)n4)c(C)c3)c2)C(=O)CC1
remaining activity (Mitogen-activated protein kinase 8 (MAPK8, Homo sapiens, UniProt P45983); kinase activity, inhibitor; 0.5487 µM, unit not given, together with: 10 mM glutathione; relative to: no inhibitor): 0.567

CC(C)[C@@H]1NC(=O)[C@H](Cc2ccccc2)NC(=O)CSC[C@@H](C(N)=O)NC(=O)[C@H](CCC(=O)O)NC(=O)[C@H](CO)NC(=O)[C@H](Cc2c[nH]c3cccc(Cl)c23)NC(=O)[C@H](C2CCCCC2)NC(=O)[C@H](C(C)C)NC(=O)[C@H](Cc2ccc(O)cc2)NC(=O)[C@H](CC(=O)O)NC(=O)[C@H](Cc2c[nH]c3ccccc23)NC(=O)[C@H](Cc2ccc(N)nc2)NC(=O)[C@H](Cc2c[nH]c3ccc(Cl)cc23)NC(=O)[C@H](CCC(=O)O)NC1=O
remaining activity (Interleukin-1 receptor-like 2 (IL1RL2, Homo sapiens, UniProt Q9HB29); reporter gene (SEAP), inhibitor, HEK-Blue IL-36R reporter; HEK-Blue IL-36R cells; 0.0017 µM, 6 h, together with: IL-36β 3 ng/mL): 93.5%

O=C(O)Cc1cc2c(cc1C(=O)c1ccccc1I)OCO2
deactivation time constant (Gria1/Gria2; whole-cell patch clamp; HEK-293T; concentration not given, together with: glutamate): 3.2 ± 0.3 ms

CSCC[C@H](NC(=O)[C@H](CCC(N)=O)NC(=O)[C@H](CCCCN)NC(=O)[C@H](CCCNC(=N)N)NC(=O)[C@H](Cc1ccc(O)cc1)NC(=O)[C@H](CCCNC(=N)N)NC(=O)[C@H](CO)NC(=O)[C@H](Cc1ccc(O)cc1)NC(=O)[C@H](CO)NC(=O)[C@H](CC(=O)O)NC(=O)[C@@H](NC(=O)[C@@H](N)Cc1ccccc1)[C@@H](C)O)C(=O)N[C@@H](C)C(=O)N[C@H](C(=O)N[C@@H](CCCCN)C(=O)N[C@@H](CCCCn1cc(C[C@H](NC(=O)CNC(=O)[C@H](CO)NC(=O)[C@H](CCCNC(=N)N)NC(=O)[C@H](CO)NC(=O)[C@H](CC(C)C)NC(=O)[C@H](CC(C)C)NC(=O)CNC(=O)[C@H](C)NC(=O)[C@H](CC(C)C)NC(=O)[C@H](CCCNC(=N)N)NC(=O)[C@H](Cc2c[nH]cn2)NC(=O)[C@@H](NC(=O)[C@@H](N)C(C)C)[C@@H](C)O)C(=O)N[C@H](C(=O)N[C@H](C(=O)N[C@@H](CCCCN)C(=O)N[C@@H](CC(N)=O)C(=O)N[C@@H](CC(N)=O)C(=O)N[C@@H](Cc2ccccc2)C(=O)N[C@H](C(=O)N2CCC[C@H]2C(=O)N[C@H](C(=O)N[C@@H](CC(N)=O)C(=O)N[C@H](C(=O)NCC(=O)N[C@@H](CO)C(=O)N[C@@H](CCCCN)C(=O)N[C@@H](C)C(=O)N[C@@H](Cc2ccccc2)C(N)=O)C(C)C)[C@@H](C)O)C(C)C)C(C)C)C(C)C)nn1)C(=O)N[C@@H](Cc1ccc(O)cc1)C(=O)N[C@@H](CC(C)C)C(=O)N[C@@H](C)C(=O)N[C@@H](C)C(=O)N[C@H](C(=O)N[C@@H](CC(C)C)C(=O)NCC(=O)N[C@@H](CCCCN)C(=O)N[C@@H](CCCNC(=N)N)C(=O)N[C@@H](Cc1ccc(O)cc1)C(=O)N[C@@H](CCCCN)C(=O)N[C@@H](CCC(N)=O)C(=O)N[C@@H](CCCNC(=N)N)C(=O)N[C@H](C(=O)N[C@@H](CCCCN)C(=O)N[C@@H](CC(N)=O)C(=O)N[C@@H](CCCCN)C(N)=O)C(C)C)C(C)C)C(C)C
A2 (PACAP-responsive receptors, rat; cAMP accumulation, antagonist; rat spinal cord; 15 min, together with: PACAP-38): 302 nM

CNC(=O)C[C@H](Cc1ccc(C#N)cc1)NC(=O)c1cc(-c2ccc(CN[C@H](C)c3ccc(C)cc3)o2)ccc1Cl
activity vs control (Tau-tubulin kinase 2 (TTBK2, Homo sapiens, UniProt Q6IQ55); enzyme activity, inhibitor; 1 µM): 102%

N[C@H]1CC[C@H](Nc2nccc(-c3cccnc3Oc3ccc(NC(=O)NC4CC4)c4ccccc34)n2)CC1
log2 LFQ intensity (5'-AMP-activated protein kinase subunit gamma-2 (PRKAG2, Homo sapiens, UniProt Q9UGJ0); kinobead competition pulldown; HEK293/HCT116 lysate mixture; 10 µM, 1 h, 4 °C; lower = stronger competition): 23.7 and 23.6 and 23.4

OC[C@H]1c2[nH]cnc2[C@H](O)[C@@H](O)[C@@H]1O
binding stoichiometry (bglA (Thermotoga maritima, UniProt Q08638); ITC; concentration not given, pH 5.8, 25 °C): 0.99 ± 0.04

For quick reference, copied from above:
Cc1cc(=O)oc2cc(OCCCCCCSC#N)ccc12
selectivity ratio (Carbonic anhydrase 12 (CA12, Homo sapiens, UniProt O43570); stopped-flow CO2 hydration; relative to: Ki CA I over Ki CA XII): > 1580

CCCCCc1ccc(Cc2cc(/C=C/C(=O)OC)cc3cccnc23)cc1
koff (Glideosome-associated protein 50 (GAP50, Plasmodium falciparum, UniProt Q8I2X3); binding, surface plasmon resonance; 1:1 binding model): 0.0437 s⁻¹

COc1ccccc1C1(O)CCN(CCCCC2=C3C(C)=CC(C)=[N+]3[B-](F)(F)n3c(C)cc(C)c32)CC1
remaining specific binding (Sodium- and chloride-dependent glycine transporter 2; MS binding competition; 10 µM): 69.6 ± 6.1%

CC(=O)NCCCC[C@H](NC(=O)[C@H](CO)NC(=O)CNC(=O)[C@H](CCCCN)NC(=O)[C@H](CCCCN)NC(=O)[C@@H]1CCCN1C(=O)[C@H](C)NC(=O)[C@@H]1CCCN1C(=O)[C@H](C)NC(=O)[C@H](CO)NC(=O)[C@H](CCCCN)NC(=O)[C@H](C)NC(=O)[C@@H]1CCCN1C(=O)[C@H](CC(=O)O)NC(=O)[C@@H]1CCCN1)C(=O)N[C@@H](CCCCN)C(=O)N[C@@H](C)C(=O)N[C@H](C(=O)N[C@H](C(=O)O)[C@@H](C)O)C(C)C
binding stoichiometry (YEATS domain-containing protein 4, YEATS domain (Homo sapiens, UniProt O95619); isothermal titration calorimetry; concentration not given, pH 7.6, 25 °C, together with: histone peptide): 1
